Experimental data gathered from unrelated publications.
Lines come from different studies, so protocols differ. Values joined by “and” are separate records of one study, mostly repeats; a detail may differ.

| Compound | target or system | test | test system | setting | scale | measurement | value |
| --- | --- | --- | --- | --- | --- | --- | --- |
| Cc1cc(NC(=O)c2cccc(NC(=O)/C=C/CN(C)C)c2)ccc1Nc1nccc(-c2cccnc2)n1 | – | – | Wistar rat male, primary hepatocytes | – | – | scaled intrinsic clearance | 15.1 mL/min/kg |
| O=c1c(O)c(-c2ccc(O)c(OS(=O)(=O)O)c2)oc2cc(O)cc(O)c12 | – | – | human, cerebrospinal fluid | concentration not given, mean | – | CSF concentration | 18.1 nM |
| Cc1ccnc(C(=O)NC2CCCCC2)c1O | – | shake-flask, potentiometric | 1-octanol/water | – | – | logP | 3.3 |
| CCN(Cc1ccc(F)cc1)c1ccc(CO)c(Cl)c1 | – | – | F344 rat, male, serum | oral, 100 mg/kg/day, 2 days | – | AST | 1220 U/L and 109 U/L and 437 U/L |
| Cc1cc(-c2nccc3c2ccn3CC(=O)Nc2ccc(-c3cnccn3)cn2)ccn1 | – | refers to: Cmax | human, plasma | oral, 20 mg once daily | reference: day 16 over day 1 | accumulation ratio | 1.91 |
| COc1c(OCCCN2CCOCC2)ccc2c1N=C(NC(=O)c1cnc(N)nc1)N1CCN=C21 | – | – | human | concentration not given, together with: rifampin | – | increase in clearance | 191% |
| FC(F)(F)c1ccc(CNc2ccc(Cc3c[nH]c4ncc(Cl)cc34)cn2)cn1 | – | refers to: Hypophosphatemia | patients with advanced solid tumours, non-TGCT cohort | oral, 1000 mg/day, any grade | – | treatment-related adverse events | 6% |
| C[C@@H](N)C1CCN(S(=O)(=O)c2cccc3cnccc23)CC1 | – | – | healthy volunteers | 25 mg, fasted | – | participants with limb abscess | 0% |
| CC(C)n1c(Nc2cccnc2)nc2cnc(Nc3ccc(N4CCN(C)CC4)cc3)nc21 | – | refers to: investigations (SOC) | healthy male subjects | oral, 100 mg, study, together with: gemfibrozil | – | subjects with adverse event | 71.4% |
| CC1=C(c2cccc(O)c2)[C@H](c2ccc(OCCN3CC(CF)C3)cc2)Oc2ccc(O)cc21 | – | – | human, plasma | oral, 1400 mg once daily, steady state geometric mean | – | AUC(0-24 h) | 1890 ng·h/mL |
| COc1cc2c(Nc3ccc(Cl)c(Cl)c3F)ncnc2cc1OC[C@@H]1C[C@@H]2CN(C)C[C@@H]2C1 | – | – | FVB Mdr1a/b(-/-) Bcrp1(-/-) mouse | oral, 70 mg/kg, 2 h | – | total plasma concentration | 2030 ng/mL |
| O=C(COc1ccc(Cl)cc1)NC12CC(c3nnc([C@H]4C[C@@H](OC(F)(F)F)C4)o3)(C1)C2 | – | – | humans | concentration not given | – | muscle spasms | 5.3% |
| O=C(CSc1nnc(-c2ccncc2)o1)Nc1ccc(F)cc1 | – | – | octanol/buffer | pH 11, known kinase inactives set | – | logP | 0.08 |
| Cn1cc(-c2ccc(-c3cncc(Cl)c3N3CCC4(CCNC4=O)CC3)cc2)cn1 | COLO 205 | gene expression, microarray, refers to: SKP2 mRNA | – | concentration not given, 6 h | reference: untreated cells | log2 fold change | -2.05 |
| O=C(OC(C(F)(F)F)C(F)(F)F)N1CCN(Cc2cccc(Oc3ccccc3)c2)CC1 | – | PET blocking study | rhesus monkey, brain Pons | 0.3 mg/kg, compound pretreatment, together with: [18F]T-401 tracer | – | Ktrans | 0.0976 min⁻¹ |
| CC(C)(C(=O)N1CCOc2c(C#N)cncc2C1)C(F)F | – | refers to: general and administration site disorders | human, both sexes | oral, 15 mg twice daily, 14 days, multiple ascending dose | – | subjects with TEAE | 12.5% |
| Cc1ccc(C(=O)N(CCCN)C(c2nc3snc(C)c3c(=O)n2Cc2ccccc2)C(C)C)cc1 (stereo not shown) | – | hypophosphataemia grade ≥3 (CTCAE) | human patients | intravenous, 7 mg/day | – | patients with adverse event | 25% |
| CC[N+]([O-])(CC)CCNC(=O)c1c(C)[nH]c(/C=C2\C(=O)Nc3ccc(F)cc32)c1C | – | – | human, serum | 25 mg maintenance dose | – | serum concentration | 0.23 ng/mL |
| COc1ccc([C@@H](O)c2cc(-c3ncnc4cc(N5CCOCC5)ccc34)c(F)cc2Cl)nn1 | – | – | locally advanced rectal cancer patients | 100 mg, together with: capecitabine and radiotherapy | – | drug-related gastrointestinal AE | 83% |
| CC(C)c1nc(N(C)S(C)(=O)=O)nc(-c2ccc(F)cc2)c1/C=C/[C@@H](O)C[C@@H](O)CC(=O)O | – | – | cynomolgus monkey hepatocytes | 4 °C, 10% monkey serum | – | passive uptake clearance | 0.6 µL/min/10⁶ cells |
| Cc1cc(C)c(S(=O)(=O)NCc2ccccn2)cc1C | – | – | octanol/buffer | pH 11, known kinase inactives set | – | logP | 2.55 |
| O=C(O)c1cccc(C(=O)O)c1 | – | – | betaine/propylene glycol DES-water | DES mass fraction 0.70 | – | apparent dissolution enthalpy | 3.3 kcal/mol |

Excerpt of the above:
| Compound | target or system | test | test system | setting | scale | measurement | value |
| --- | --- | --- | --- | --- | --- | --- | --- |
| O=c1c(O)c(-c2ccc(O)c(OS(=O)(=O)O)c2)oc2cc(O)cc(O)c12 | – | – | human, cerebrospinal fluid | concentration not given, mean | – | CSF concentration | 18.1 nM |
| CC1=C(c2cccc(O)c2)[C@H](c2ccc(OCCN3CC(CF)C3)cc2)Oc2ccc(O)cc21 | – | – | human, plasma | oral, 1400 mg once daily, steady state geometric mean | – | AUC(0-24 h) | 1890 ng·h/mL |
| FC(F)(F)c1ccc(CNc2ccc(Cc3c[nH]c4ncc(Cl)cc34)cn2)cn1 | – | refers to: Hypophosphatemia | patients with advanced solid tumours, non-TGCT cohort | oral, 1000 mg/day, any grade | – | treatment-related adverse events | 6% |
